{"data": "Published values gathered from unrelated publications", "note": "Parts stem from different laboratories: compare values within a part only. Values joined by “and” are separate records of one study, mostly repeats; a detail may differ."}
{"data": "Series 1", "SMILES": "CC(C)(C(=O)O)[C@H](NC(=O)Cc1cccc(I)c1)c1ccc2oc(=O)[nH]c2c1", "technique": "Incucyte 3D growth", "tested at": "30 µM", "direction": "higher = more growth"}
{"cell line": "KP-4", "conditions": "240 h", "spheroid area": "4.41e+07 a.u. and 5.06e+07 a.u. and 5.23e+07 a.u. and 7.72e+07 a.u. and 5.31e+07 a.u. and 2.33e+07 a.u."}
{"cell line": "NCI-H1437", "conditions": "138 h", "spheroid area": "3.28e+07 a.u. and 2.9e+07 a.u. and 3.32e+07 a.u. and 4.05e+07 a.u. and 3.23e+07 a.u. and 3.57e+07 a.u."}
{"cell line": "A375", "conditions": "294.52 h", "spheroid area": "1.99e+08 a.u. and 1.81e+08 a.u. and 2.03e+08 a.u. and 1.74e+08 a.u. and 1.76e+08 a.u. and 1.75e+08 a.u."}
{"cell line": "NCI-H358", "conditions": "198 h", "spheroid area": "6.71e+06 a.u. and 7.08e+06 a.u. and 8.16e+06 a.u. and 1.12e+07 a.u. and 7.81e+06 a.u. and 8.66e+06 a.u."}
{"cell line": "MEL-JUSO", "conditions": "90.52 h", "spheroid area": "1.49e+07 a.u. and 1.53e+07 a.u. and 1.47e+07 a.u. and 1.57e+07 a.u. and 1.63e+07 a.u. and 1.51e+07 a.u."}
{"cell line": "IPC-298", "conditions": "300 h", "spheroid area": "4.2e+07 a.u. and 3.19e+07 a.u. and 3.51e+07 a.u. and 3.95e+07 a.u. and 3.97e+07 a.u. and 2.6e+07 a.u."}
{"cell line": "A375", "conditions": "6 h", "spheroid area": "1.24e+07 a.u. and 6.94e+06 a.u. and 5.46e+06 a.u. and 5.89e+06 a.u. and 6.43e+06 a.u. and 6.1e+06 a.u."}
{"cell line": "MEL-JUSO", "conditions": "168.52 h", "spheroid area": "1.69e+07 a.u. and 2.03e+07 a.u. and 1.71e+07 a.u. and 1.86e+07 a.u. and 1.81e+07 a.u. and 2.15e+07 a.u."}
{"data": "Series 2", "Structure (SMILES)": "C[C@@H]1CN(c2ccc(-c3cc(C(=O)NCCOCCOCCOCCOCCOCCOCCNC(=O)/C=C/c4[nH]cc(C(=O)N[C@@H](CC(N)=O)c5ccc(F)c(Cl)c5)c4-c4ccc(Cl)cc4F)ccc3F)cc2NC(=O)c2ccc(F)cc2C(F)(F)F)C[C@H](C)N1C", "technique": "ATPlite"}
{"cell line": "MV4-11", "conditions": "2.15 µM, 5 days", "scale": "baseline: DMSO", "viability": "58.5% and 64.7% and 46.9% and 37.2%"}
{"cell line": "MV4-11", "conditions": "0.1 µM, 5 days", "scale": "baseline: DMSO", "viability": "60.1% and 89.5% and 78.7% and 74.9%"}
{"cell line": "MV4-11 expressing HiBiT-WDR5", "test system": "RPMI with 10% FBS", "conditions": "13.3 nM, 24 h", "viability": "89.6% and 88.6% and 107%"}
{"cell line": "MV4-11", "conditions": "0.0215 µM, 5 days", "scale": "baseline: DMSO", "viability": "77.5% and 75.1% and 96.4% and 84.8%"}
{"cell line": "MV4-11 expressing HiBiT-WDR5", "test system": "RPMI with 10% FBS", "conditions": "227 nM, 24 h", "viability": "107% and 127% and 120%"}
{"cell line": "MV4-11 expressing HiBiT-WDR5", "test system": "RPMI with 10% FBS", "conditions": "5.15 nM, 24 h", "viability": "102% and 86.1% and 93.5%"}
{"cell line": "MV4-11 expressing HiBiT-WDR5", "test system": "RPMI with 10% FBS", "conditions": "3800 nM, 24 h", "viability": "88.3% and 112% and 93.4%"}
{"cell line": "MV4-11 expressing HiBiT-WDR5", "test system": "RPMI with 10% FBS", "conditions": "2 nM, 24 h", "viability": "92% and 110% and 85.2%"}
{"data": "Other studies, line by line", "baseline": "DMSO"}
{"SMILES": "c1ccc2c(-c3nn4c(-c5ccncc5)nnc4s3)c[nH]c2c1", "target or system": "α-galactosidase (human, wild type)", "test system": "healthy dermal fibroblasts", "conditions": "0.5 µM, without ISRIB", "measurement": "remaining activity", "result": "161% and 143% and 138% and 125% and 117% and 109% and 115%"}
{"SMILES": "CNC(=N)NCCC[C@H](NC(=O)[C@H](CC(C)C)NC(=O)NNC(=O)[C@H](Cc1ccccc1)NC(=O)[C@H](CO)NC(=O)[C@H](CC(N)=O)NC(=O)[C@@H](Cc1cccnc1)NC(=O)[C@H](N)Cc1ccc(O)cc1)C(=O)NCC(N)=O", "target or system": "sample C colorectal tumour organoid", "conditions": "0.1 µM", "measurement": "viability", "result": "94.3%"}
